Published values pooled from the literature.
Compare with care: the assays were run in different laboratories.
Target: Serine/threonine-protein kinase TBK1 (TBK1, Homo sapiens, UniProt Q9UHD2)
Sequence (Q9UHD2 1-729, as in one of the studies): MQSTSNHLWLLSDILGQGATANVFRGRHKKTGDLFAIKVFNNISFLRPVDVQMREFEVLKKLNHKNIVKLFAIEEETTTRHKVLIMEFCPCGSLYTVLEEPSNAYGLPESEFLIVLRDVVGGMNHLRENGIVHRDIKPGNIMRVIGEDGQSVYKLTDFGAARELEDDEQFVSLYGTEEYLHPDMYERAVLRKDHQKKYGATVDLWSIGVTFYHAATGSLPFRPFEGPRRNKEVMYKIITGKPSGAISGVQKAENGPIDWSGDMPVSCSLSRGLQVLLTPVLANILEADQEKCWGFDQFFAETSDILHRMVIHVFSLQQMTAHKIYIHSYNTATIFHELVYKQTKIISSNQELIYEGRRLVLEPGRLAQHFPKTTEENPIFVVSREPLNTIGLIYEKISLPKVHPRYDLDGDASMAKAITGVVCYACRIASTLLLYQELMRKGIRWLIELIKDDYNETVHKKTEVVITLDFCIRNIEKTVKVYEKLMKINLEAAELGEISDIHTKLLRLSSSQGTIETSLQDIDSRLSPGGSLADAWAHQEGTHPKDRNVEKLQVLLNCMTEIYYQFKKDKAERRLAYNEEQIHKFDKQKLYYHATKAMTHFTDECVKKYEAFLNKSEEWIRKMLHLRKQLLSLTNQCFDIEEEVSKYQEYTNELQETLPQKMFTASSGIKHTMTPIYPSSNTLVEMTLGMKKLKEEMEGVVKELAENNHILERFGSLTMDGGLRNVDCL

`CC[C@@H]1[C@H](F)C(=O)N[C@@H]1COc1nccc2cc(C(N)=O)c(OC)cc12` has an inhibition of -7.8% (ATP-site probe binding, ActivX profiling; THP-1 cell lysate; 0.04 mM, Lys1 site).
With `Cn1cc(-c2cnc3ccc(NC(=O)Nc4ccc(F)c(Br)c4)cc3n2)cn1` the inhibition was 10.4% (kinase binding, KiNativ profiling, refers to: Lys1 peptide; PANC-1 lysate; 2.5 µM).
The remaining binding of `C=CC(=O)N1CCC(COCC(=O)N2CCN(c3nc(-c4cnc(N)nc4C(F)F)nc(N4CCOC[C@@H]4C)n3)CC2)CC1` is reported as 100% (KINOMEscan; 1 µM).
`O=C1NC(=O)/C(=C/c2ccc(-c3ccc(F)cc3O)o2)S1` gave a remaining activity of 70% (enzyme activity; 10 µM).
`Cc1cc(Nc2cc(N3CCN(C)CC3)nc(Sc3ccc(NC(=O)C4CC4)cc3)n2)[nH]n1` has a remaining activity of 94% (kinase activity, KinaseProfiler; 0.03 µM, species human; reference: control).
With `COc1cc(F)ccc1-c1ncnc(Nc2cccc(C[S@](C)(=N)=O)c2)n1` the remaining activity was 52% (kinase activity; 10 µM, with: 10 µM ATP).
`CNc1ncc2c(/C=C/C(=O)N3CCC(OC)CC3)nn(Cc3cccc(C(F)(F)F)c3)c2n1` has a remaining activity of 114% (kinase activity, inhibitor; 1 µM; reference: untreated control).
For `COc1cc(N2CCN(C)CC2)ccc1Nc1nc(N)n(C(=S)NCc2c(Cl)cccc2Cl)n1`, the remaining activity was 12% (enzyme activity; 10 µM; reference: control).
